Experimental data pooled from the literature.
A part holds a random share of what one study measured.
Chain of UniProt O60331 (whole entry, looked up): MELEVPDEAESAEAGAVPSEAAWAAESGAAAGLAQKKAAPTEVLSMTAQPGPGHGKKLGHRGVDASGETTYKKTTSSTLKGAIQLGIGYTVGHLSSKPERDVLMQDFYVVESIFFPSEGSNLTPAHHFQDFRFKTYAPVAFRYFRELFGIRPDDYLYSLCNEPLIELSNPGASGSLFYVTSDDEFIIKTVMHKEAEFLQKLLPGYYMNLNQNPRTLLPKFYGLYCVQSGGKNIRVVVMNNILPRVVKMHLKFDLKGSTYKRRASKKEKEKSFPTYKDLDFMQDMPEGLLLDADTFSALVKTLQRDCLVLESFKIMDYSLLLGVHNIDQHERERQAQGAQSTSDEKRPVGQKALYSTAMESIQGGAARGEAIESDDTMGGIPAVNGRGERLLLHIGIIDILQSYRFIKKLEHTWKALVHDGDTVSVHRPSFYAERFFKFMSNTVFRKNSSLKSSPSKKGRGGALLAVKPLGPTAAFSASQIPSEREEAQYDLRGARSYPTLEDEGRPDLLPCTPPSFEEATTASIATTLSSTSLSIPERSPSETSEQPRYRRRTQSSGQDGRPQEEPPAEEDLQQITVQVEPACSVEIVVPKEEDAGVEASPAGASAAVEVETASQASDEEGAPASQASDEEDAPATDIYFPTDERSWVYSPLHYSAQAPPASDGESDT
Chain of UniProt Q9UEE5 (whole entry, looked up): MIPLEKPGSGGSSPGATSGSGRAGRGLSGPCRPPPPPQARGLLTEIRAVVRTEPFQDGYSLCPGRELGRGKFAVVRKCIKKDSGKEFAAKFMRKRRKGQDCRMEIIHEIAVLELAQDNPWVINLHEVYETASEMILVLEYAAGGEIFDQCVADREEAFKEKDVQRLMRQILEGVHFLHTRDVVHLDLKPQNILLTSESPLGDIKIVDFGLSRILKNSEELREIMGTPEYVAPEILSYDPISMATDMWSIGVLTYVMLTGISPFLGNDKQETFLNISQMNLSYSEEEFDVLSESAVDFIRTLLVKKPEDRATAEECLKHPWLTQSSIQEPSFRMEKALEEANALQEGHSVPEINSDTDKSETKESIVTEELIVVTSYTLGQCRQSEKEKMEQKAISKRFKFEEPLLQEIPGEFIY
Chain of UniProt O00444 (whole entry, looked up): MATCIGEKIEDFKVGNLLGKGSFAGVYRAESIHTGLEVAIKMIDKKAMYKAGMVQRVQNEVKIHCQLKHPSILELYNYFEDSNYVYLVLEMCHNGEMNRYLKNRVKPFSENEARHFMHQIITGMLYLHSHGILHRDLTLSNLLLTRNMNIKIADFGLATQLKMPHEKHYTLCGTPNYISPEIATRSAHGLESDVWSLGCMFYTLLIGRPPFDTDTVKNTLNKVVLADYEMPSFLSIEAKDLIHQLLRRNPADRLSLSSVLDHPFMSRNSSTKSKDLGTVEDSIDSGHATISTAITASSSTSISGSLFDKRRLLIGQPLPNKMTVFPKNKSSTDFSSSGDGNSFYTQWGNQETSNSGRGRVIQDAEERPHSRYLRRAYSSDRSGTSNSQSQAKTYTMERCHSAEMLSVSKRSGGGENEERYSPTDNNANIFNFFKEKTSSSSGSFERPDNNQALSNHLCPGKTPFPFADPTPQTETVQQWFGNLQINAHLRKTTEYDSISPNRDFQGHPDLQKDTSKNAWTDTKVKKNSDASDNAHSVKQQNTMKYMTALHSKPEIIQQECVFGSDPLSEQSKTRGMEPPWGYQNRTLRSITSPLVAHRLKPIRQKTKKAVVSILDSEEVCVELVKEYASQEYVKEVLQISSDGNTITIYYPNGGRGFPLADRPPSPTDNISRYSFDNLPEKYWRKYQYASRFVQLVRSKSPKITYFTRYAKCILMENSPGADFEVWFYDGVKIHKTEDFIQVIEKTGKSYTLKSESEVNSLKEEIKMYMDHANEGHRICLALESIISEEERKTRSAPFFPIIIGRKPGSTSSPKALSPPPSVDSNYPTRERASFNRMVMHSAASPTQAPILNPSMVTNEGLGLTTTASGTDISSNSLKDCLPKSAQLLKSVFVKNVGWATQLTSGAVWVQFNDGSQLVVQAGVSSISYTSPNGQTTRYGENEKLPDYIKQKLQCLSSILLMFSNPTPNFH
Chain of UniProt Q8TBX8 (whole entry, looked up): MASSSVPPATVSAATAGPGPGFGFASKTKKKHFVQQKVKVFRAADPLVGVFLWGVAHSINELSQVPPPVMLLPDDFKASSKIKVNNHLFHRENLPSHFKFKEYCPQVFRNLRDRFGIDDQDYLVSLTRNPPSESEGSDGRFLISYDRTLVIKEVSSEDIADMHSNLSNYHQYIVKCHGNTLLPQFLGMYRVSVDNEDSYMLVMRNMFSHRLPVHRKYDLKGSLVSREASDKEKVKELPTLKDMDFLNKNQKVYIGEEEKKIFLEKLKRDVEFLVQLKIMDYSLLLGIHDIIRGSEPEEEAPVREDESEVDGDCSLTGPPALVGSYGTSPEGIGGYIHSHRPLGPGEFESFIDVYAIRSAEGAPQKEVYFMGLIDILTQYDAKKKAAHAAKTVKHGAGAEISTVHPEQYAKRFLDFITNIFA
Chain of UniProt Q8NE63 (whole entry, looked up): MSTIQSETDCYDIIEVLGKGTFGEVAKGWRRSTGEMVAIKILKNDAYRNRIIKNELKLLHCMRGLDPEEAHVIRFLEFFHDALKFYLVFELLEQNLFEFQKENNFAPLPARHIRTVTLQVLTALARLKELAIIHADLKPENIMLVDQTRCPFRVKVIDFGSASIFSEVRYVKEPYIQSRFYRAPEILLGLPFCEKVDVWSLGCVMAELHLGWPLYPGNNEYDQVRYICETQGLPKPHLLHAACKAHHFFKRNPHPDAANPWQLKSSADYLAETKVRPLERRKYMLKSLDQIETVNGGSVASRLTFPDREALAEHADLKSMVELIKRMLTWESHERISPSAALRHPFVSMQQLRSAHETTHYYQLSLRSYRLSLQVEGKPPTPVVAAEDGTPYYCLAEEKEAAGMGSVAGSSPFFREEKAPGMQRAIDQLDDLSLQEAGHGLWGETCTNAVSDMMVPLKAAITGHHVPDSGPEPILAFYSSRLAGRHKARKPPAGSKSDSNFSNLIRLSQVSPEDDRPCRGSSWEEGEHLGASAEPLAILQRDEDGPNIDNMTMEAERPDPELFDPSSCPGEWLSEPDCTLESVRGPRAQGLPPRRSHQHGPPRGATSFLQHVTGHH
Chain of UniProt Q9Y6M4 (whole entry, looked up): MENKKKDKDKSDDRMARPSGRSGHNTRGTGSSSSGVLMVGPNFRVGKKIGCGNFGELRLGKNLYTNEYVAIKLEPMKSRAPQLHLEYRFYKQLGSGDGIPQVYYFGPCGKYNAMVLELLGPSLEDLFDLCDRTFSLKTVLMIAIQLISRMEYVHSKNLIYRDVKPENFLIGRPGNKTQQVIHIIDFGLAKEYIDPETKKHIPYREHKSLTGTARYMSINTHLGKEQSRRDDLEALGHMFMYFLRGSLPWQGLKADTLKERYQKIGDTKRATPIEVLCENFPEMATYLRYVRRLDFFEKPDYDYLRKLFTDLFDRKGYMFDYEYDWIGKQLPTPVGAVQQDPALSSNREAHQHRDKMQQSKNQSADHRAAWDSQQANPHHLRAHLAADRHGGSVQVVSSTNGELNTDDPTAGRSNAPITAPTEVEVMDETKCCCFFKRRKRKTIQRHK
Chain of UniProt Q13131 (whole entry, looked up): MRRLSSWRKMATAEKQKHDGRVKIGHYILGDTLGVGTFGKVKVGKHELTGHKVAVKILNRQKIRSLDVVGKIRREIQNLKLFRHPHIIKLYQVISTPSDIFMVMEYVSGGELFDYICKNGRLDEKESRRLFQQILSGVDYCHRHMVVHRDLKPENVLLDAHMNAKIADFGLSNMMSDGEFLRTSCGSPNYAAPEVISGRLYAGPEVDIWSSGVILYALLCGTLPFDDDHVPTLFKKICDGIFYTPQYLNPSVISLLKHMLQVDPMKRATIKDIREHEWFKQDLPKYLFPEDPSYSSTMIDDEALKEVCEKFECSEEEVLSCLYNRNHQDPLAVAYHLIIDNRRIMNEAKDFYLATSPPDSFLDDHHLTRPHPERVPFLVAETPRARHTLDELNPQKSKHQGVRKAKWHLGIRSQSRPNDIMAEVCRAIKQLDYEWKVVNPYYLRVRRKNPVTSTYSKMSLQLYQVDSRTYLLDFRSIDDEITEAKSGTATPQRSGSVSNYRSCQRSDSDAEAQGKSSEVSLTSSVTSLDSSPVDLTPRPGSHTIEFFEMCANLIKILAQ
Chain of UniProt Q9P0L2 (whole entry, looked up): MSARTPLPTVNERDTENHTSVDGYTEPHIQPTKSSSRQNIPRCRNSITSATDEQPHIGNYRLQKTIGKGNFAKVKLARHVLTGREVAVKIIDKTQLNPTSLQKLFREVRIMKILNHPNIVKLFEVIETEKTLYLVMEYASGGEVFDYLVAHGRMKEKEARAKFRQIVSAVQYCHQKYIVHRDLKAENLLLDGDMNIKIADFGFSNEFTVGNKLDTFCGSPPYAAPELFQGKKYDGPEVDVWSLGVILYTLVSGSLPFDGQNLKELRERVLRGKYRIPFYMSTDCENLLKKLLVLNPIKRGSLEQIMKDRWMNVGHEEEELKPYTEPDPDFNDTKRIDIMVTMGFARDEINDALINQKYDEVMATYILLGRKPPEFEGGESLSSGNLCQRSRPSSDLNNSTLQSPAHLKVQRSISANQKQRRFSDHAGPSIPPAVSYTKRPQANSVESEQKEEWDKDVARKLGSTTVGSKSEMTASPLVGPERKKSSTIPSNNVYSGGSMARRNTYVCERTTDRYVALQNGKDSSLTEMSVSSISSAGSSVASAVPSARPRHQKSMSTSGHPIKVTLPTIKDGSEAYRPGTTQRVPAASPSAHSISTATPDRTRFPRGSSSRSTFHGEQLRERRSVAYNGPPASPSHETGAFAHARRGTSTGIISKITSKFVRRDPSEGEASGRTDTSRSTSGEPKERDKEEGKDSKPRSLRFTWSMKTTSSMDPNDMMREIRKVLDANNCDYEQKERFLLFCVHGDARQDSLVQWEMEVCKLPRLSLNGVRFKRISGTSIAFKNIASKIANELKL

Series 1
Target: Prothrombin, mature alpha-thrombin (F2, Homo sapiens, UniProt P00734)
Technique: aptamer microarray, sandwich
Form: DNA with 2'F-ANA
Sample: in vitro
Concentration: 200 nM
Setting: whole 15-mer aptamer, many near background
Together with: Cy3 exosite-II aptamer, 400 nM
Direction: higher = stronger binding
Endpoint: mean fluorescence intensity
Strand: GGTTGGTGTGGTTGG
Modification = 2'F-ANA at 3 4 5 7 9 10 11 14 15; result = 51.8 a.u.
Modification = 2'F-ANA at 3 9 10 12 13 14 15; result = 375 a.u.
Modification = 2'F-ANA at 1 2 5 9 10 12 13 14 15; result = 45.9 a.u.
Modification = 2'F-ANA at 1 2 3 4 6 8 9 12 14; result = 74.2 a.u.
Modification = 2'F-ANA at 5 6 8 13 15; result = 56.1 a.u.
Modification = 2'F-ANA at 1 4 5 8 10 13 14 15; result = 45.4 a.u.
Modification = 2'F-ANA at 1 4 6 9 10 13 15; result = 48.1 a.u.
Modification = 2'F-ANA at 2 3 7 8 9 10 12 14 15; result = 339 a.u.

Series 2
Target: Serine/threonine-protein kinase Sgk1 (SGK1, Homo sapiens, UniProt O00141)
Observed: enzyme activity
Action: inhibitor
Concentration: 0.5 µM
Baseline: control
Endpoint: remaining activity
Construct (O00141 1-431): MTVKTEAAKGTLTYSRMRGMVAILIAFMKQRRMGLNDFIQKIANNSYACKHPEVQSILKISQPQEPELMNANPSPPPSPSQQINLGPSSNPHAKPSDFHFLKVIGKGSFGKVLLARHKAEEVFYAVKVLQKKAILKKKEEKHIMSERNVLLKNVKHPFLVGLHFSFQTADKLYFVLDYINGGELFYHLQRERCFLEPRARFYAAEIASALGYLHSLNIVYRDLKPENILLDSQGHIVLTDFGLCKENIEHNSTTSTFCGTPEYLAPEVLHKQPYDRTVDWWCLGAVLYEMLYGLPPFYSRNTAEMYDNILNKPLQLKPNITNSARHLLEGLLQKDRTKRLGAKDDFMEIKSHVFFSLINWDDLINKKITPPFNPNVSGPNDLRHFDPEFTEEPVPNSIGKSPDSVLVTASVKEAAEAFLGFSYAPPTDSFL
Compound = Oc1ccc(-c2nc(-c3ccncc3)c(-c3ccc(F)cc3)[nH]2)cc1; result = 101%
Compound = O=C1NC(=O)C(c2cn(CCCn3ccnc3)c3ccccc23)=C1Nc1ccccc1; result = 74.9%
Compound = CC(C)[C@H](CO)Nc1nc(Nc2cc(N)cc(Cl)c2)c2ncn(C(C)C)c2n1; result = 93.1%
Compound = OCC(O)CCON=C1C(c2c(O)[nH]c3ccccc23)=Nc2ccccc21 (centres unmarked); result = 51%
Compound = O=c1c2ccccc2[nH]c(=S)n1CCN1CCC(=C(c2ccc(F)cc2)c2ccc(F)cc2)CC1; result = 96%
Compound = O=C(CCCc1ccc(-c2ccccc2F)cc1)Nc1ccc(O)cc1; result = 103%
Compound = O=C(O)c1ccc2c3c1cccc3c(=O)n1c3ccccc3nc21; result = 102%
Compound = CNC(=O)c1cc(Oc2ccc(NC(=O)Nc3ccc(Cl)c(C(F)(F)F)c3)cc2)ccn1; result = 95.2%
Compound = O=C(Nc1cccc(Nc2cc(Nc3cccc(C(F)(F)F)c3)ncn2)c1)C1CC1; result = 94.8%
Compound = CN(C)c1ccc(C=C2C(=O)Nc3ccccc32)cc1; result = 93.1%
Compound = COc1cc2ncnc(Nc3ccc(Oc4ccccc4)cc3)c2cc1OC; result = 103%
Compound = COc1cc2nccc(Oc3ccc(NC(=S)NC(=O)c4ccccc4C)cc3)c2cc1OC; result = 101%
Compound = Cc1nc(-c2ccccc2)c(-c2ccncc2)o1; result = 99.3%

Series 3
Target: Transcription factor SOX-2, HMG box (SOX2, Homo sapiens, UniProt P48431, residues 19-118)
Chain of UniProt P48431 (19-118, looked up): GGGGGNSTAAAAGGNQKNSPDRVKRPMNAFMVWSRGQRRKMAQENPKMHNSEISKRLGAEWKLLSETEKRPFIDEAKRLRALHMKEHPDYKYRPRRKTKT
Technique: protein-binding microarray
Form: double-stranded DNA, one strand shown
Sample: in vitro
Concentration: not given
Setting: k-mer, scored over probes, only values ≥0.25
Direction: higher = stronger binding
Endpoint: E-score
Strand = ATTATCC; result = 0.364
Strand = CCTATTA; result = 0.311
Strand = AATAGCG; result = 0.252
Strand = AGAATAG; result = 0.259
Strand = AGCTGAT; result = 0.314
Strand = TATACAA; result = 0.295
Strand = AAATTGT; result = 0.407
Strand = ATGAATA; result = 0.448

Series 4
Structure (SMILES): CNC(=O)Nc1ccc2c(c1)[C@@]1(CC2)OC(=O)N(CC(=O)N(Cc2ccc(F)cc2)[C@@H](C)C(F)(F)F)C1=O
Concentration: 1 µM
Endpoint: remaining binding
target = PRKAA1 (Homo sapiens, UniProt Q13131); observed = cell-free assay; technique = competition with immobilised ligand; result = 91%
target = FLT3 (Homo sapiens, UniProt P36888, F691L/ITD); observed = cell-free assay; technique = competition with immobilised ligand; result = 99%
target = PIP5K1C (Homo sapiens, UniProt O60331); observed = cell-free assay; technique = competition with immobilised ligand; result = 100%
target = DCLK1 (Homo sapiens, UniProt O15075); observed = cell-free assay; technique = competition with immobilised ligand; result = 76%
target = CSNK1G3 (Homo sapiens, UniProt Q9Y6M4); observed = cell-free assay; technique = competition with immobilised ligand; result = 89%
target = EPHA4 (Homo sapiens, UniProt P54764); observed = cell-free assay; technique = competition with immobilised ligand; result = 86%
target = IKBKB (Homo sapiens, UniProt O14920); observed = cell-free assay; technique = competition with immobilised ligand; result = 92%
target = ZAP70 (Homo sapiens, UniProt P43403); observed = cell-free assay; technique = competition with immobilised ligand; result = 100%
target = BRSK2 (Homo sapiens, UniProt Q8IWQ3); observed = cell-free assay; technique = competition with immobilised ligand; result = 90%
target = HIPK4 (Homo sapiens, UniProt Q8NE63); observed = cell-free assay; technique = competition with immobilised ligand; result = 100%
target = STK17A (Homo sapiens, UniProt Q9UEE5); observed = cell-free assay; technique = competition with immobilised ligand; result = 88%
target = ULK1 (Homo sapiens, UniProt O75385); observed = cell-free assay; technique = competition with immobilised ligand; result = 64%
target = CDC42BPG (Homo sapiens, UniProt Q6DT37); technique = competition binding; result = 88%
target = MUSK (Homo sapiens, UniProt O15146); observed = cell-free assay; technique = competition with immobilised ligand; result = 100%
target = MARK1 (Homo sapiens, UniProt Q9P0L2); observed = cell-free assay; technique = competition with immobilised ligand; result = 100%
target = PIP4K2C (Homo sapiens, UniProt Q8TBX8); observed = cell-free assay; technique = competition with immobilised ligand; result = 100%
target = PIK3CA (Homo sapiens, UniProt P42336, I800L); observed = cell-free assay; technique = competition with immobilised ligand; result = 63%
target = MAPK8 (Homo sapiens, UniProt P45983); observed = cell-free assay; technique = competition with immobilised ligand; result = 71%
target = CDKL3 (Homo sapiens, UniProt Q8IVW4); observed = cell-free assay; technique = competition with immobilised ligand; result = 92%
target = DYRK2 (Homo sapiens, UniProt Q92630); observed = cell-free assay; technique = competition with immobilised ligand; result = 92%
target = PLK4 (Homo sapiens, UniProt O00444); observed = cell-free assay; technique = competition with immobilised ligand; result = 100%

Some of these lines once more (series 3):
Strand = AAATTGT; result = 0.407
Strand = AGAATAG; result = 0.259
Strand = TATACAA; result = 0.295
Strand = AGCTGAT; result = 0.314
Strand = AATAGCG; result = 0.252
